Published values of several laboratories.
Every numbered part comes from another study and shows a few of its results, in no order. Substitutions count along the parent as printed.
UniProt Q13043, sequence (whole entry, looked up): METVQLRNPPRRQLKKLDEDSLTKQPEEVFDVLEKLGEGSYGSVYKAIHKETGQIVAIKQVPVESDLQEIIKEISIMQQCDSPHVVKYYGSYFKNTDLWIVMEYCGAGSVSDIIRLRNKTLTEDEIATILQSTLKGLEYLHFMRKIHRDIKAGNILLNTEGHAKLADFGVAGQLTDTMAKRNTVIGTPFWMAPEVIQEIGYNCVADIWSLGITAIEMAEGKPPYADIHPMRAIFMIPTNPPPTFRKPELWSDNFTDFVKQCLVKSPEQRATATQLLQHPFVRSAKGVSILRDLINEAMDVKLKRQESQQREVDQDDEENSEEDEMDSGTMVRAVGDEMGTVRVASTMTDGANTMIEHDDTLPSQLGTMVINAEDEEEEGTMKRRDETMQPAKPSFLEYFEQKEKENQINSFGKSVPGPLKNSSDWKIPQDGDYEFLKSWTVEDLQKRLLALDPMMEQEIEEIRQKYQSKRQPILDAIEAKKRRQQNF
UniProt O00750, sequence (whole entry, looked up): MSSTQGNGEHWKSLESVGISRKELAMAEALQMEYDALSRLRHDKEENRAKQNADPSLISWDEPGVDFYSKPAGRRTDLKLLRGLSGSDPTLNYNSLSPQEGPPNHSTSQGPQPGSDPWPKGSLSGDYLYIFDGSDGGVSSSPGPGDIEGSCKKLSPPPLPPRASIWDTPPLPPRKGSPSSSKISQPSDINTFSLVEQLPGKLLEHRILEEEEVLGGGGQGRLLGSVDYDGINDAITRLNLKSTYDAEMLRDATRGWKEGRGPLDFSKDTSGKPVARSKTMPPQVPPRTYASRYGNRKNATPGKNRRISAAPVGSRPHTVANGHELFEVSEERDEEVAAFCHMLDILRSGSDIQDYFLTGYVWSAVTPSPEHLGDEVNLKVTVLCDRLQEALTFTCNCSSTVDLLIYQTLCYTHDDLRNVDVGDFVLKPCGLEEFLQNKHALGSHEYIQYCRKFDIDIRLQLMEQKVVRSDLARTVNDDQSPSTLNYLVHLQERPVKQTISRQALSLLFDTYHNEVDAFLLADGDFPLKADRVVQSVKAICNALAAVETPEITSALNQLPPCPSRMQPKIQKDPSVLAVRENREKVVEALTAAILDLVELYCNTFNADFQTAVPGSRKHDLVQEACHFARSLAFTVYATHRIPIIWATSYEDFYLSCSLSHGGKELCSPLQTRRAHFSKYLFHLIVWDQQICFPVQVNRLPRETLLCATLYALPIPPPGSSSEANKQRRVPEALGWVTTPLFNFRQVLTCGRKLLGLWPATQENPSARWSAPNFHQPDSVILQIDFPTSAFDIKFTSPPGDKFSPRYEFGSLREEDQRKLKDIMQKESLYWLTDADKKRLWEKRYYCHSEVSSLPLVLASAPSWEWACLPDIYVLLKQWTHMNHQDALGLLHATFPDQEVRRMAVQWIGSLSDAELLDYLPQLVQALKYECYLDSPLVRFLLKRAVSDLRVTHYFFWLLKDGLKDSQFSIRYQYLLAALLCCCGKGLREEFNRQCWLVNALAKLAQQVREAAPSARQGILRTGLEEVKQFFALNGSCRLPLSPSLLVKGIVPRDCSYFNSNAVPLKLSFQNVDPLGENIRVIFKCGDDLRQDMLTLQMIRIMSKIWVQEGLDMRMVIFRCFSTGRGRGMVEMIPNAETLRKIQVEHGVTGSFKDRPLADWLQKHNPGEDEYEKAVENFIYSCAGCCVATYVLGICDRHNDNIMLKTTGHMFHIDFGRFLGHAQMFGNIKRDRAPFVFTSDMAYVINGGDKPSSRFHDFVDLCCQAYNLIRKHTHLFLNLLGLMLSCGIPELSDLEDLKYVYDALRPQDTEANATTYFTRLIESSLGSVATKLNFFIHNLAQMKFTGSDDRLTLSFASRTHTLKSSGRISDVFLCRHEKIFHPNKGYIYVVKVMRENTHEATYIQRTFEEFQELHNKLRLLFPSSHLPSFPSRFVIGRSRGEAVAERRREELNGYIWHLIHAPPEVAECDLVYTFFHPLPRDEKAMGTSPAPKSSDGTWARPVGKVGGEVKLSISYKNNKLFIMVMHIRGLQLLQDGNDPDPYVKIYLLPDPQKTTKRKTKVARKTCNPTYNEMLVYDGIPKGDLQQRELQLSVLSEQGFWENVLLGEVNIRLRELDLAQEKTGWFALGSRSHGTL
UniProt Q07912, sequence (whole entry, looked up): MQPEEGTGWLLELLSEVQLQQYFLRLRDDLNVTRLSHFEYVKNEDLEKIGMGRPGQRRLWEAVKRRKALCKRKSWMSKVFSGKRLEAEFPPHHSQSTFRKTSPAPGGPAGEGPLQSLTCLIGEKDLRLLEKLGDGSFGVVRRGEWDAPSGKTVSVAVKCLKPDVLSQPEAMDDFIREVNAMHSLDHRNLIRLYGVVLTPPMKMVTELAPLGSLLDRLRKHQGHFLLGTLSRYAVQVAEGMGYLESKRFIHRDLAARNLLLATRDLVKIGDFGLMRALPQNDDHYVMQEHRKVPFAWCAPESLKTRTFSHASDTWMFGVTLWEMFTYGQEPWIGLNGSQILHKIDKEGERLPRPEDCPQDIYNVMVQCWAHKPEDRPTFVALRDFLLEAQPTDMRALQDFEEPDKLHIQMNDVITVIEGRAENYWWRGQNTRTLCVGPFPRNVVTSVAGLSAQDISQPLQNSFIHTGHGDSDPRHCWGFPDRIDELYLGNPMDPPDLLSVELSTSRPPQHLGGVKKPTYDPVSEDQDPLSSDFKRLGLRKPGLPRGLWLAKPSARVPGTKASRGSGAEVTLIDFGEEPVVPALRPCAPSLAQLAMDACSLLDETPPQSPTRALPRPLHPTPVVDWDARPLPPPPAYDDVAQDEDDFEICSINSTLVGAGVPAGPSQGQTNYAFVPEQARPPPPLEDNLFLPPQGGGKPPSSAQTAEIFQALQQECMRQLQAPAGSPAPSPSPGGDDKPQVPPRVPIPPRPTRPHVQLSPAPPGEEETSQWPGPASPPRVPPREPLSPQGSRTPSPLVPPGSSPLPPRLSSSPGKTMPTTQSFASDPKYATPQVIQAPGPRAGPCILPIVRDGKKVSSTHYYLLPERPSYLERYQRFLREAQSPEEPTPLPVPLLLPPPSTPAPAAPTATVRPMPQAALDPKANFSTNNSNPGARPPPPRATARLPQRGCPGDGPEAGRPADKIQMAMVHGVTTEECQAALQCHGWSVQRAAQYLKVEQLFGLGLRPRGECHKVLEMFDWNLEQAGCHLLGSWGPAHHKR
UniProt O14733, sequence (whole entry, looked up): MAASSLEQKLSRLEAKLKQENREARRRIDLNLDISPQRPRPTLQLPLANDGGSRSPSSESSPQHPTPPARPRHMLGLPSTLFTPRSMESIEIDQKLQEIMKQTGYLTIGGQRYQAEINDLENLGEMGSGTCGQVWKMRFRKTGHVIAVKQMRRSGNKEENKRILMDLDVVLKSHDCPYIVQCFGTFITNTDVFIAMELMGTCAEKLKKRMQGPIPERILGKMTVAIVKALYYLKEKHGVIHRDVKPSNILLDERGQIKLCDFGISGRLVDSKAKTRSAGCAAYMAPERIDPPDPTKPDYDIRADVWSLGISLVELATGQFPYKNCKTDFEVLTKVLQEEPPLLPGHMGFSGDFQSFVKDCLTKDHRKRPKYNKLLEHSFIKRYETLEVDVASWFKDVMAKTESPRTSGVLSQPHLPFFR
UniProt P0C264, sequence (whole entry, looked up): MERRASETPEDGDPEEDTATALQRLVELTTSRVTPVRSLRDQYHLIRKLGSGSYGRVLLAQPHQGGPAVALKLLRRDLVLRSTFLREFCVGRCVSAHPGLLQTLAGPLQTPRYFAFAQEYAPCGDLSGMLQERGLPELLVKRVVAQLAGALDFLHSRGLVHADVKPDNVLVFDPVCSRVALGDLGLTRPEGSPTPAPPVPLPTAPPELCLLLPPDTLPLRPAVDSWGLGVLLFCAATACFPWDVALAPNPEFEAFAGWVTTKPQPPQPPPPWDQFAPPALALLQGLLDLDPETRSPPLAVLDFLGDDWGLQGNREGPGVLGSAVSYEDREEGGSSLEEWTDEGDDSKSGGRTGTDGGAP

Study 1
Target: Serine/threonine-protein kinase N1 (PKN1, Homo sapiens, UniProt Q16512)
Observed: enzyme activity
Mode: inhibitor
Concentration: 0.5 µM
Baseline: control
Structure (SMILES) | remaining activity
O=C1NC(=O)C(c2cn(CCCn3ccnc3)c3ccccc23)=C1Nc1ccccc1 | 22.7%
Nc1ncnc2n[nH]c(Nc3ccc(F)cc3)c12 | 102%
Cn1c2ccccc2c2c3c(c4c5ccccc5n(CCC#N)c4c21)CNC3=O | 10.3%
CC(C)[C@H](CO)Nc1nc(Nc2cc(N)cc(Cl)c2)c2ncn(C(C)C)c2n1 | 93.3%
COc1ccc(OC)c2c(=S)c3ccccc3[nH]c12 | 109%
O=C(O)c1ccc2c3c1cccc3c(=O)n1c3ccccc3nc21 | 99.5%
Nc1ccc2ncnc(NCCc3ccc(Oc4ccccc4)cc3)c2c1 | 105%
O=C(CCCc1ccc(-c2ccccc2F)cc1)Nc1ccc(O)cc1 | 105%
Cc1cccc(-c2[nH]c(C(C)(C)C)nc2-c2ccc3c(c2)OCO3)n1 | 108%
OCC(O)CCON=C1C(c2c(O)[nH]c3ccccc23)=Nc2ccccc21 (stereo not drawn) | 49.9%
Cc1ccc(Nc2nccc(N(C)c3ccc4c(C)n(C)nc4c3)n2)cc1S(N)(=O)=O | 102%
Cn1sc(=O)n(Cc2ccccc2)c1=O | 98.5%
O=C1NC(=O)C(c2cn(CCCO)c3ncccc23)=C1c1cnccn1 | 97.8%
COc1cc2nccc(Oc3ccc(NC(=S)NC(=O)c4ccccc4C)cc3)c2cc1OC | 99.2%
NCCNc1ncc(C(N)=O)c(Nc2cccc(C(F)(F)F)c2)n1 | 101%
CCOC(=O)c1c(C)[nH]c(/C=C2\C(=O)Nc3ccccc32)c1C | 89.6%
O=C(Nc1cccc(Nc2cc(Nc3cccc(C(F)(F)F)c3)ncn2)c1)C1CC1 | 98.9%

Study 2
Target: Sal-like protein 4, full length isoform A (SALL4, Homo sapiens, UniProt Q9UJQ4, residues 1-1053)
UniProt Q9UJQ4, sequence (whole entry, looked up): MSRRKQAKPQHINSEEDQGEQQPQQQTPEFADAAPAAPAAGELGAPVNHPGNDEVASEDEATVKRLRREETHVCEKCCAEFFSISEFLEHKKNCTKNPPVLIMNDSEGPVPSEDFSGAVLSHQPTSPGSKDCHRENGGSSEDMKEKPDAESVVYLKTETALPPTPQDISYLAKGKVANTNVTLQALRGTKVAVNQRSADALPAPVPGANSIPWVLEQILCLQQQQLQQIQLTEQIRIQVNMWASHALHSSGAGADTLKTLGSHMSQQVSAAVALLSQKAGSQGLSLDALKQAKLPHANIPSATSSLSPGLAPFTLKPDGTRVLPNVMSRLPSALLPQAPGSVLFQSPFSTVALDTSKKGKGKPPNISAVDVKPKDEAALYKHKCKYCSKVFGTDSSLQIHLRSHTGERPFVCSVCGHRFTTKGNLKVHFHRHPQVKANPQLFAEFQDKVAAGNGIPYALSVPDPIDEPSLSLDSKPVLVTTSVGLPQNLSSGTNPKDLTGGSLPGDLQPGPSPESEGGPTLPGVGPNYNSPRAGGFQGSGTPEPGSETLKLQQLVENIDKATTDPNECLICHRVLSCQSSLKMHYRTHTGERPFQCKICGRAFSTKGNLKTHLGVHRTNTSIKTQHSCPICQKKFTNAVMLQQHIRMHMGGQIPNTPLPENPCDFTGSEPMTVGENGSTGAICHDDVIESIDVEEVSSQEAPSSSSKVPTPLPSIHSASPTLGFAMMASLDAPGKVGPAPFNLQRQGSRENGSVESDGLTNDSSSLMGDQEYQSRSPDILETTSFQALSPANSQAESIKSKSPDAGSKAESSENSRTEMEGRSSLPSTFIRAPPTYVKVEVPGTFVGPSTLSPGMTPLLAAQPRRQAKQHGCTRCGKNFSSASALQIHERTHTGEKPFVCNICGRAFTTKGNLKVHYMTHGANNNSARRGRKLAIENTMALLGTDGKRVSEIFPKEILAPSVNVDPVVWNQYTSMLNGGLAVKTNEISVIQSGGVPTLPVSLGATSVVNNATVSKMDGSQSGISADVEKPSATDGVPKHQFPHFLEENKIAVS
Method: universal PBM
Molecule type: double-stranded DNA, one strand shown
Matrix: in vitro
Concentration: 600 nM
Notes: 8-mer, flanks averaged, mean of replicates
Direction: higher = stronger binding
Strand | E-score
GACTGACA | 0.102
CGATTGTC | -0.0021
CATGCAAC | 0.0907
CGTTGTAC | 0.192
ACTCCTTC | -0.122
AGAGCAAG | -0.116
CCTTTAAA | 0.0842
CTTTGCGA | -0.0646

Study 3
Structure (SMILES): CN1CCN(c2cnc3c(C4CCN(C(=O)c5ccc(OC(F)(F)F)cc5N)CC4)ncnc3c2)CC1
Observed: cell-free assay
Method: competition with immobilised ligand
Concentration: 1 µM
target | remaining binding [%]
Serine/threonine-protein kinase BRSK1 (BRSK1, Homo sapiens, UniProt Q8TDC3) | 100
Phosphatidylinositol 4-phosphate 3-kinase C2 domain-containing subunit beta (PIK3C2B, Homo sapiens, UniProt O00750) | 98
Activated CDC42 kinase 1 (TNK2, Homo sapiens, UniProt Q07912) | 100
Dual specificity mitogen-activated protein kinase kinase 7 (MAP2K7, Homo sapiens, UniProt O14733) | 100
Serine/threonine-protein kinase LATS2 (LATS2, Homo sapiens, UniProt Q9NRM7) | 100
Epidermal growth factor receptor (EGFR, Homo sapiens, UniProt P00533, G719S) | 100
Tyrosine-protein kinase ABL1, phosphorylated (ABL1, Homo sapiens, UniProt P00519, M351T) | 100
Mast/stem cell growth factor receptor Kit (KIT, Homo sapiens, UniProt P10721) | 98
Uncharacterized serine/threonine-protein kinase SBK3 (SBK3, Homo sapiens, UniProt P0C264) | 72
Ephrin type-A receptor 5 (EPHA5, Homo sapiens, UniProt P54756) | 91
Serine/threonine-protein kinase 4 (STK4, Homo sapiens, UniProt Q13043) | 84
Phosphatidylinositol 4,5-bisphosphate 3-kinase catalytic subunit delta isoform (PIK3CD, Homo sapiens, UniProt O00329) | 86

Study 4
Target: CREB3, bZIP domain (human)
Method: DHFR protein complementation
Matrix: yeast
Notes: single substitutions, most at no-binding floor
Baseline: wild-type JUN-FOS pair
Direction: higher = stronger binding
Starting sequence: JUN, bZIP domain (human); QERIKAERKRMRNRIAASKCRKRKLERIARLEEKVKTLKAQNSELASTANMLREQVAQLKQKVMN; partner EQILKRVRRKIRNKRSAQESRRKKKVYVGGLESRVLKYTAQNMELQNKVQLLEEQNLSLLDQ
Variant | binding fitness
I28P | -1.48 natural log
A49T | -1.51 natural log
E32G | -1.42 natural log
Q55E | -1.53 natural log
M51N | -1.45 natural log
A29K | -1.46 natural log
E44N | -1.44 natural log
R53K | -1.6 natural log
